Measurements from different studies.
Numbered parts are unrelated; each lists some results of a single study. Several values in a cell are separate wells, animals, samples, runs or records.
Sequence of UniProt P9WI81 (whole entry, looked up): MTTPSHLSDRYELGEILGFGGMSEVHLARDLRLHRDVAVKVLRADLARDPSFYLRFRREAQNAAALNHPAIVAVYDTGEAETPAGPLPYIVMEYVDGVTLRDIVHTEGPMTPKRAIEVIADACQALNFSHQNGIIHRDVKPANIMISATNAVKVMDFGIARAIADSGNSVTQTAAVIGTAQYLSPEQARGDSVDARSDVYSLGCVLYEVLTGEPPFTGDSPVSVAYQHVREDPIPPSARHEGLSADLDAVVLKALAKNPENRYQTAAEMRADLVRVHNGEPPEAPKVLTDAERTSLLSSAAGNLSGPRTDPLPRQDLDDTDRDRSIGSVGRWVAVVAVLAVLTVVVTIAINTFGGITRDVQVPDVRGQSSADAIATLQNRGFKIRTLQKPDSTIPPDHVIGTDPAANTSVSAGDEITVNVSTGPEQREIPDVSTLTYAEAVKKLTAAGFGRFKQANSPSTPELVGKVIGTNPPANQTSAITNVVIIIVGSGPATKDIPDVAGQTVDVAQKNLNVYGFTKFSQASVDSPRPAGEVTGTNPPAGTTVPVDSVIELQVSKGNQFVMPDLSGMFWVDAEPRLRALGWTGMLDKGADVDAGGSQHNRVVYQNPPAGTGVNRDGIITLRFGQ
Sequence of UniProt P28335 (whole entry, looked up): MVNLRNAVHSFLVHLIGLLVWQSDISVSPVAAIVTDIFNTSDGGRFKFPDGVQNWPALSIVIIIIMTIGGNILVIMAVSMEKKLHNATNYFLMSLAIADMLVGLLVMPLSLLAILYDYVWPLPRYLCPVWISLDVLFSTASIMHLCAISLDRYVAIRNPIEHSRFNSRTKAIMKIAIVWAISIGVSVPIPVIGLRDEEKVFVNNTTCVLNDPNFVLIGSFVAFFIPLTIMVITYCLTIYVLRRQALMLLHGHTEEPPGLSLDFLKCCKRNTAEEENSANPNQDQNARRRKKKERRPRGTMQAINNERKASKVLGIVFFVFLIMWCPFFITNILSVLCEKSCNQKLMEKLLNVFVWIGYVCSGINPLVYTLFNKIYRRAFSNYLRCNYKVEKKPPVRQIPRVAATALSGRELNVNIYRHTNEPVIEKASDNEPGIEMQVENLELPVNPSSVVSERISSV
Sequence of UniProt P16257 (whole entry, looked up): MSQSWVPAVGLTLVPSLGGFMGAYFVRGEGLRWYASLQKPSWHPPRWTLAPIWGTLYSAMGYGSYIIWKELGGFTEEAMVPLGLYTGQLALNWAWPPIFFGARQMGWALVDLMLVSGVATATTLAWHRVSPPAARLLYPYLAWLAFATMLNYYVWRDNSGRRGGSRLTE

Study 1 — read-out: RNA clamping; method: fluorescence polarization; concentration: concentration not given; together with: FAM-labelled poly r(AG)8 RNA
Target: Eukaryotic initiation factor 4A-III (Homo sapiens, UniProt P38919)
Sequence of UniProt P38919 (whole entry, looked up): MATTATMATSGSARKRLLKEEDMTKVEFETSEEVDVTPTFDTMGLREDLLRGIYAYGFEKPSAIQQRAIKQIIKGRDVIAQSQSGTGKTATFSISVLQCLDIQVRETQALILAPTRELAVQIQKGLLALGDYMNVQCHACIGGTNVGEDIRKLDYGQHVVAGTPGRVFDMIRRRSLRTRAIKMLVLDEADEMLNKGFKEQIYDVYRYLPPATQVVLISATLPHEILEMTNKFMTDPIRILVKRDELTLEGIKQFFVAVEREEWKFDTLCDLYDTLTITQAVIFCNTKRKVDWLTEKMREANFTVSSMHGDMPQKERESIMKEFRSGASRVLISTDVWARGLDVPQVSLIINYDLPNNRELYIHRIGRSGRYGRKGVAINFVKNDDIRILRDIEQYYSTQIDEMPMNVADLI
| Compound | fluorescence polarization change |
| --- | --- |
| COC(=O)[C@H]1[C@H](c2ccccc2)[C@@]2(c3ccc(OC)cc3)Oc3cc(OC)cc(OC)c3[C@]1(O)[C@H]2O | -5.4 mP |
| COC(=O)[C@H]1[C@@H](c2ccccc2)[C@]2(c3ccc(OC)cc3)Oc3cc(OC)cc(OC)c3[C@@]1(O)C2=O | 4.1 mP |
| COC(=O)[C@@H]1[C@@H](c2ccccc2)C2(c3ccc(OC)cc3)C(=O)C1(O)c1ccccc1N2C (stereo partly drawn) | -10.1 mP |

Further values, each from its own experiment
ADRB1: Beta-1 adrenergic receptor (ADRB1, Homo sapiens, UniProt P08588)
Sequence of UniProt P08588 (whole entry, looked up): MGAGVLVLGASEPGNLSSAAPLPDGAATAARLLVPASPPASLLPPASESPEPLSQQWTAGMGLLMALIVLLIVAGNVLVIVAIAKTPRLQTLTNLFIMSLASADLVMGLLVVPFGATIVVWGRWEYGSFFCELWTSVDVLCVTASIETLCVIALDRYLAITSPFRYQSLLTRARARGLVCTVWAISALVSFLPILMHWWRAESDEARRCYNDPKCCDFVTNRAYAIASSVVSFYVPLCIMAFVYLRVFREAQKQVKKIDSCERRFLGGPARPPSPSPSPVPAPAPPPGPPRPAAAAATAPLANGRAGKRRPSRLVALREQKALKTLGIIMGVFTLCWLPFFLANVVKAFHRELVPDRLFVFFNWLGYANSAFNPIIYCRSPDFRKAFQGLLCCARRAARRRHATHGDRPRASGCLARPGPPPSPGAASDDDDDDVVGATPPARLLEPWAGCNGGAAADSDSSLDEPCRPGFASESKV
| Structure (SMILES) | target or system | assay | setting | how to read | measurement | result |
| --- | --- | --- | --- | --- | --- | --- |
| Cc1nccc(COC(=O)N2C[C@@H]3[C@@H](CNC(=O)c4ccc5[nH]nnc5c4)[C@@H]3C2)n1 | 5-hydroxytryptamine receptor 2C (HTR2C, Homo sapiens, UniProt P28335) | binding, radioligand binding | 10 µM |  | inhibition | 31.1% |
| Cc1cccc([C@H](C)c2c[nH]cn2)c1C | mouse MPNST tumor cells | high-content immunofluorescence imaging, refers to: nuclear SOX9 | 10 µM, 12 h, mean of 2 replicates | baseline: DMSO control, higher = more nuclear SOX9 | nuclear SOX9 intensity | 91.5 % of DMSO and 95.7 % of DMSO |
| Cn1nc(C(=O)NCc2ccc(C(=O)O)cc2)cc1-c1ccc2[nH]ccc2c1 | Serine/threonine-protein kinase PknB (pknB, Mycobacterium tuberculosis, UniProt P9WI81) | cell-free assay, competition with immobilised ligand | 0.1 µM |  | remaining binding | 76% |
| Cc1ncc2c(c1CNCC1(O)CNCCOC1)CCNC2 (stereo not drawn) | ADRB1 | antagonist |  |  | IC50 | ≥ 100 µM |
| Cn1cncc1[C@](O)(COc1ccc(C#N)cc1-c1ccc(OC(F)(F)F)cc1)c1ccc(C#N)cc1 | Translocator protein (Tspo, Rattus norvegicus, UniProt P16257) | radioligand binding, radioligand displacement | 10 µM |  | inhibition | -1.86% |
| ClC1=C(Cl)[C@]2(Cl)[C@@H]3[C@@H]4C[C@@H]([C@H]5O[C@@H]45)[C@@H]3[C@@]1(Cl)C2(Cl)Cl | ADRB1 | antagonist |  |  | IC50 | ≥ 100 µM |

Some of these lines once more (study 1):
| Compound | fluorescence polarization change |
| --- | --- |
| COC(=O)[C@H]1[C@@H](c2ccccc2)[C@]2(c3ccc(OC)cc3)Oc3cc(OC)cc(OC)c3[C@@]1(O)C2=O | 4.1 mP |
